Published values collected from several papers.
Cell line: KM12

CCCCN1CCN(c2ccc3[nH]c(-c4ccc5[nH]c(-c6cc(OC)c(OC)c(OC)c6)nc5c4)nc3c2)CC1  growth percent (SRB; 10 µM, 48 h): 59.3%
C#C[C@@]1(O)[C@@H](CO)O[C@@H](n2cc(Cl)c3c(N)ncnc32)[C@@H]1O  TGI (SRB; NCI-60 screen): > 100 µM
CCN(CC)c1ccc(C=NNC(=O)CSc2nc3ccccc3c(=O)n2Cc2ccc(S(N)(=O)=O)cc2)c(O)c1  TGI (NCI five-dose screen): > 100 µM
CCOc1ccc(-c2nc3cc(-c4nc5cc(N6CCN(C)CC6)ccc5[nH]4)ccc3[nH]2)cc1OCC  growth percent (SRB; 10 µM, 48 h): 43%
O=C(Nc1nnc2[nH]c(=S)[nH]c(-c3ccc(Cl)cc3)c1-2)c1ccccc1  cell growth (SRB; 10 µM, NCI60 single-dose screen, colon cancer; baseline: untreated): 98.5%
CCCCN1CCN(c2ccc3[nH]c(-c4ccc5[nH]c(-c6ccc(OCC)cc6)nc5c4)nc3c2)CC1  growth percent (SRB; 10 µM, 48 h): 49.1%
Cc1cc(-c2ccccc2)n(-c2nc(-c3ccc(Cl)cc3)c3c(NC(=O)c4ccccc4)nnc-3[nH]2)n1  cell growth (SRB; 10 µM, NCI60 single-dose screen, colon cancer; baseline: untreated): 102%
C#C[C@@]1(O)[C@@H](CO)O[C@@H](n2cc(I)c3c(N)ncnc32)[C@@H]1O  TGI (SRB; NCI-60 screen): > 100 µM
CSc1nc(-c2ccc(Cl)cc2)c2c(NC(=O)c3ccccc3)nnc-2[nH]1  cell growth (SRB; 10 µM, NCI60 single-dose screen, colon cancer; baseline: untreated): 100%
CCCCN1CCN(c2ccc3[nH]c(-c4ccc5[nH]c(-c6ccc(OCC)c(OCC)c6)nc5c4)nc3c2)CC1  growth percent (SRB; 10 µM, 48 h): -65.6%
NNc1nc(-c2ccc(Cl)cc2)c2c(NC(=O)c3ccccc3)nnc-2[nH]1  cell growth (SRB; 10 µM, NCI60 single-dose screen, colon cancer; baseline: untreated): 100%
COc1ccc(OC)c(-c2nc3ccc(-c4nc5ccc(N6CCN(C)CC6)cc5[nH]4)cc3[nH]2)c1  growth percent (SRB; 10 µM, 48 h): 105%
O=C1NC(=NCc2cccs2)S/C1=C\c1ccc2ncccc2c1  IC50 (MTS; colon cancer): > 10 µM
CC(=O)O[C@H]1C(=O)[C@@]2(C)[C@H]([C@H](OC(=O)c3ccccc3)[C@]3(O)C[C@H](OC(=O)[C@H](O)[C@@H](NC(=O)c4ccccc4)c4ccccc4)C(C)=C1C3(C)C)[C@]1(OC(C)=O)CO[C@@H]1C[C@@H]2O  TGI (sulforhodamine B; colon cancer; NCI60 screen): 0.16 µM
Cc1cc(C)n(-c2nc(-c3ccc(Cl)cc3)c3c(NC(=O)c4ccccc4)nnc-3[nH]2)n1  cell growth (SRB; 10 µM, NCI60 single-dose screen, colon cancer; baseline: untreated): 96.5%
Cn1cncc1C1=CN(c2ncnc3[nH]cnc23)CCS1  TGI (colon cancer): 120 µM

A few entries again:
Cn1cncc1C1=CN(c2ncnc3[nH]cnc23)CCS1  TGI (colon cancer): 120 µM
Cc1cc(-c2ccccc2)n(-c2nc(-c3ccc(Cl)cc3)c3c(NC(=O)c4ccccc4)nnc-3[nH]2)n1  cell growth (SRB; 10 µM, NCI60 single-dose screen, colon cancer; baseline: untreated): 102%
